Experimental data pooled from the literature.
Compare with care: the assays were run in different laboratories. Several values in a cell are separate wells, animals, samples, runs or records. ± marks the error that the study gave.

`CSc1cc(C)nc(SC)c1NC(=O)CN1CCN(CCSc2nc3ccccc3[nH]2)CC1.Cl`: tissue concentration “not detected” (mouse, olfactory bulb; intranasal, 50 µL in 0.01 N HCl daily for 7 days, 120 min after last dose, LLOQ 1 ng/g).
With `OCc1nc2ccc(NCc3ccc(C(F)(F)F)cc3)cc2[nH]1` the tissue concentration was 133 ± 26.8 ng/g (Balb/c mouse, male, heart; oral, 10 mg/kg, 6 h).
The tissue uptake of `N[C@@H](C[18F])C(=O)O` is reported as no more than 1 %ID/g (athymic nude mouse, non-bone tissues; intravenous, 110 min).
`COc1cccc(OC)c1-c1cc(C(=O)NC2(C(=O)O)C3CC4CC(C3)CC2C4)nn1-c1ccc(C(=O)N(C)CCCN(C)CCCN(C)C(=O)CN2CCN(CC(=O)[O-])CCN(CC(=O)[O-])CCN(CC(=O)[O-])CC2)cc1C(C)C.[177Lu+3]` (centres unmarked) has a tissue uptake of 3.5 ± 0.6 %ID/g (SCID mouse HT-29 xenograft, small intestine; iv, 4 h).
The tissue concentration of `CCc1c2c(nc3ccc(OC(=O)N4CCC(N5CCCCC5)CC4)cc13)-c1cc3c(c(=O)n1C2)COC(=O)[C@]3(O)CC` is reported as 18600 ± 3400 ng/g (mouse Bcrp1(−/−), colon; intraperitoneal, 50 mg/kg, 24 h).
`COc1cccc(OC)c1-c1cc(C(=O)NC2(C(=O)O)C3CC4CC(C3)CC2C4)nn1-c1ccc(C(=O)N(C)CCCN(C)CCCN(C)C(=O)CN2CCN(CC(=O)[O-])CCN(CC(=O)[O-])CCN(CC(=O)[O-])CC2)cc1C(C)C.[177Lu+3]` (centres unmarked) gave a tissue uptake of 0.24 %ID/g (mouse, HT-29 xenograft, kidney; 72 h post injection).
For `Cc1nc2ccc(OCc3ccc(C(F)(F)F)cc3)cc2[nH]1`, the tissue concentration was 4.1 ± 2 ng/g (Balb/c mouse, male, liver; intravenous, 1 mg/kg, 72 h).
`COCCCOc1cc2c(cc1OC)-c1cc(=O)c(C(=O)O)cn1[C@H](C(C)C)C2` has a tissue concentration of < 1000 ng/g and > 500 ng/g (CD-1 mouse, brain; oral, 10 mg/kg).
The tissue uptake of `CC(C)NCCCC[C@@H]1NC(=O)[C@H](Cc2ccc(O)cc2)NC(=O)[C@H](Cc2ccccc2)NC(=O)CC[C@H](C(=O)N[C@@H](CCCCNC(C)C)C(=O)N[C@@H](CCCCNC(=O)[C@H](CCC(=O)O)NC(=O)[C@H](CCC(=O)O)NC(=O)[C@H](CCC(=O)O)NC(=O)CN2CCN(CC(=O)O)CCN(CC(=O)O)CCN(CC(=O)O)CC2)C(N)=O)NC(=O)CNC(=O)[C@H](Cc2ccc3ccccc3c2)NC(=O)[C@@H](CCCNC(=N)N)NC1=O` [gallium-68 labelled] is reported as 0.36 %ID/g (mouse with Daudi xenograft, adrenals; intravenous, 1 h).
`CN[C@H](CC(C)C)C(=O)N[C@H]1C(=O)N[C@@H](CC(N)=O)C(=O)N[C@H]2C(=O)N[C@H]3C(=O)N[C@H](C(=O)N[C@H](C(=O)O)c4cc(O)cc(O)c4-c4cc3ccc4O)[C@H](O)c3ccc(c(Cl)c3)Oc3cc2cc(c3O[C@@H]2O[C@H](CO)[C@@H](O)[C@H](O)[C@H]2O[C@H]2C[C@](C)(N)[C@H](O)[C@H](C)O2)Oc2ccc(cc2Cl)[C@H]1O` — result for “tissue concentration ratio”: 2 orders of magnitude (male C57BL/6J mouse, thalamus; intracerebroventricular, 84 µg, 2.5 h; relative to: intracerebroventricular over intravenous 35 mg/kg).
`O=c1cc(-c2ccc(O)cc2)oc2c([C@@H]3OC[C@H](O)[C@H](O)[C@H]3O)c(O)c([C@@H]3O[C@H](CO)[C@@H](O)[C@H](O)[C@H]3O)c(O)c12` gave a tissue concentration of 9.32 ng/g (UHPLC-MS/MS; C57BL/6J mouse, liver; oral, dose not given).

Excerpt of the above:
The tissue concentration of `CCc1c2c(nc3ccc(OC(=O)N4CCC(N5CCCCC5)CC4)cc13)-c1cc3c(c(=O)n1C2)COC(=O)[C@]3(O)CC` is reported as 18600 ± 3400 ng/g (mouse Bcrp1(−/−), colon; intraperitoneal, 50 mg/kg, 24 h).
